Assay results of several laboratories.
Lines come from different studies, so protocols differ. ± marks the error that the study gave.

Structure (SMILES)	assay	system	setting	plasma concentration
Cc1ccc([C@H]2C[C@@H]2COc2cc(NCc3nnc(C)s3)nc(C)n2)nc1		rat (novel object recognition), plasma	oral, 0.16 mg/kg, 1 h	18 nM
O=C(O)C(F)(OC(F)(F)C(F)(F)C(F)(F)F)C(F)(F)F (stereo not drawn)	LC-MS	C57BL/6J mouse male, plasma	drinking water, 2 mg/L each PFAS, 12 weeks	100 ng/mL
CC(C)C[C@H](NC(=O)[C@H](CCC(=O)O)NC(=O)[C@H](CCC(=O)O)NC(=O)[C@H](CC(=O)O)NC(=O)[C@H](CCC(=O)O)NC(=O)[C@H](CCC(=O)O)NC(=O)[C@H](CCC(=O)O)NC(=O)[C@@H](N)CC(=O)O)C(=O)O		rat, plasma	intranasal, 5.5 mg/kg single dose, 15 min	162 ng/mL
O=C(NCCS)c1cccc(C(=O)NCCS)c1		rat Sprague-Dawley male	intravenous, 1 mg/kg, 0.083 h	522 ng/mL
O=C(O)C(F)(F)C(F)(F)C(F)(F)C(F)(F)C(F)(F)C(F)(F)C(F)(F)F	LC-MS	C57BL/6J mouse female, plasma	drinking water, 2 mg/L each PFAS, 12 weeks	23400 ng/mL
Cc1c(P(=S)(c2ccccc2)c2ccccc2)n2ccccc2[n+]1C/C=C/c1ccccc1		mouse, plasma	intraperitoneal, 10 mg/kg, 24 h	25 ng/mL
CCOCCOCCOCCCCCNC(=O)NC12CC3CC(CC(C3)C1)C2		ApoE knockout mice, plasma	drinking water, 90 µg/mL, 8 weeks	0.06 ± 0.04 nM
O=S(=O)(O)C(F)(F)C(F)(F)C(F)(F)C(F)(F)C(F)(F)C(F)(F)F	LC-MS	C57BL/6J mouse female, plasma	drinking water, 2 mg/L each PFAS, 12 weeks	22000 ± 8300 ng/mL
CC(C)C[C@H](N)C(=O)N[C@H](C(=O)N[C@@H](CCCCN)C(=O)NCC(=O)N[C@@H](CCCNC(=N)N)C(N)=O)C(C)C		lean mouse, plasma	intraperitoneal, 500 µg GLP-1(9-36)amide, 5 min	80 nM

Repeated from above:
Structure (SMILES)	assay	system	setting	plasma concentration
CCOCCOCCOCCCCCNC(=O)NC12CC3CC(CC(C3)C1)C2		ApoE knockout mice, plasma	drinking water, 90 µg/mL, 8 weeks	0.06 ± 0.04 nM
